Published values of several laboratories.
Every numbered part comes from another study and shows a few of its results, in no order. Substitutions count along the parent as printed.

Study 1
Target: PABPC1L2, full length, GST fusion (mouse, UniProt A0ABA7IW68)
Technique: RNAcompete
Molecule type: RNA
Sample: in vitro
Concentration: 20 nM
Setting: 7-mer, probes averaged, single round
Baseline: mean of 7-mers
Reading: higher = stronger binding
Construct (chain): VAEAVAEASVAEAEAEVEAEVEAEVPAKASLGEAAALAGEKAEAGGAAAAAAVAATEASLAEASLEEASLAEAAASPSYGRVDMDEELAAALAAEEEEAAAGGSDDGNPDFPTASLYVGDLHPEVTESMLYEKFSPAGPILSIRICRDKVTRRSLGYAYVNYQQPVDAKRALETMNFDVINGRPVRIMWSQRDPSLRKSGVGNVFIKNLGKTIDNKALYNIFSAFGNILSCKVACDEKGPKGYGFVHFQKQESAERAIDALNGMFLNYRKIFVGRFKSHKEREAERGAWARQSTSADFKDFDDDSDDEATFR
| Sequence | 7-mer Z-score |
| --- | --- |
| UCGUAUA | -0.191 |
| GAGUCAA | -0.0826 |
| AUUCUUC | -0.296 |
| UAGGCGA | 0.213 |
| CAGACGG | 0.439 |
| CGCUUUC | -0.382 |
| CGGCCUA | -0.275 |
| GCAAGAA | 0.466 |
| UCAGAUG | 0.0478 |
| GGAGCGA | 0.678 |
| CGCGCCU | -0.28 |
| UCUAACA | -0.177 |
| GGAGAAA | 1.03 |
| UAAAGGC | 0.314 |
| GAUCGCC | -0.385 |
| AUAACAC | 0.00617 |
| GGGGACU | 0.336 |
| CGGUACU | -0.0645 |
| AAAGACC | 0.936 |
| UUGGUUU | -0.36 |
| UCCUUAU | -0.445 |
| GUUGGCU | -0.175 |
| CGAGCAG | 0.0261 |
| GCGGACA | 0.222 |

Study 2
Target: CREBL2, bZIP domain (human)
Technique: DHFR protein complementation
Sample: yeast
Setting: single substitutions, most at no-binding floor
Baseline: wild-type JUN-FOS pair
Reading: higher = stronger binding
Starting sequence: JUN, bZIP domain (human); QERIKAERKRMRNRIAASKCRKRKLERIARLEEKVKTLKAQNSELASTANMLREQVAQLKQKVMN; partner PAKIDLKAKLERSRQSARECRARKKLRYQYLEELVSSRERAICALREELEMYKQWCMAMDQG
| Variant | binding fitness [natural log] |
| --- | --- |
| M51C | -1.5 |
| A57M | -1 |
| S43Q | -1.25 |
| A40L | -1.55 |
| V35Q | -1.55 |
| L45M | -1.36 |
| L45C | -1.37 |
| K34S | -1.52 |
| K34R | -1.29 |
| T37V | -1.48 |
| S47P | -1.55 |
| K34D | -1.49 |
| L38T | -1.53 |
| A46K | -1.5 |
| K36V | -1.53 |
| L38S | -1.54 |
| M51G | -1.53 |
| L31E | -1.56 |
| S43R | -1.44 |
| E32G | -1.47 |
| M51V | -1.46 |
| A57L | -1.41 |
| L38R | -1.51 |
| N42F | -1.5 |
| L31D | -1.57 |

Study 3
Target: ABI1, truncated, D143A, DHFR fusion (Arabidopsis thaliana)
Technique: DHFR PCA, deep sequencing
Sample: yeast
Setting: methotrexate growth selection, single substitutions
Added: (+)-ABA 200 µM
Baseline: wild-type fitted maximum
Reading: higher = stronger binding
Starting sequence: PYL1, truncated, DHFR fusion (Arabidopsis thaliana); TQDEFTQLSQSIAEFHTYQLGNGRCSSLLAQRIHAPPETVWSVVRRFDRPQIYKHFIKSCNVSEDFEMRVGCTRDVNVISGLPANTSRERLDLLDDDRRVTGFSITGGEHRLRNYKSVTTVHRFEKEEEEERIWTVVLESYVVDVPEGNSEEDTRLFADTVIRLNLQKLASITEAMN; partner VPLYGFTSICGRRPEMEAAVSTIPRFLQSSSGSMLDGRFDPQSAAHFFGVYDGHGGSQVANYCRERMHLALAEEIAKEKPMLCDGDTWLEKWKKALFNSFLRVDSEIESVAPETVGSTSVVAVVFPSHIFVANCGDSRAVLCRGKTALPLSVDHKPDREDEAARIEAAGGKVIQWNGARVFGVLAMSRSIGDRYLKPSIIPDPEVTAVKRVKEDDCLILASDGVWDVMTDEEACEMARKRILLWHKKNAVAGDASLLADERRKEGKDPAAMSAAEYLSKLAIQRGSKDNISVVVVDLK
| Variant | relative binding score [%] |
| --- | --- |
| E38T | 89.6 |
| T135F | -3.3 |
| A13D | 98.3 |
| P146D | 10.7 |
| V145I | 99.6 |
| M176Q | 100 |
| E109A | 93.2 |
| T17N | 88.9 |
| P50T | 2.59 |
| D92M | 71.3 |
| I133L | 106 |
| E139D | 14.6 |
| V142N | 80.7 |
| G81T | 51.8 |
| T17S | 98.3 |

Study 4
Target: Interferon regulatory factor 3, full length, phosphomimetic (IRF3, Homo sapiens, UniProt Q14653, residues 1-427, S386D/S396D/S398D/S402D/T404D/S405D)
Technique: protein-binding microarray
Molecule type: double-stranded DNA, one strand shown
Sample: in vitro
Concentration: 2540 nM top
Setting: 60-bp whole probe
Added: salmon DNA 0.4 mg/ml
Baseline: random background probes
Reading: higher = stronger binding
All sequences stand within: GCCTAGCAC … GTCTTGATTCGCTTGACGCTGCTG
Construct (chain): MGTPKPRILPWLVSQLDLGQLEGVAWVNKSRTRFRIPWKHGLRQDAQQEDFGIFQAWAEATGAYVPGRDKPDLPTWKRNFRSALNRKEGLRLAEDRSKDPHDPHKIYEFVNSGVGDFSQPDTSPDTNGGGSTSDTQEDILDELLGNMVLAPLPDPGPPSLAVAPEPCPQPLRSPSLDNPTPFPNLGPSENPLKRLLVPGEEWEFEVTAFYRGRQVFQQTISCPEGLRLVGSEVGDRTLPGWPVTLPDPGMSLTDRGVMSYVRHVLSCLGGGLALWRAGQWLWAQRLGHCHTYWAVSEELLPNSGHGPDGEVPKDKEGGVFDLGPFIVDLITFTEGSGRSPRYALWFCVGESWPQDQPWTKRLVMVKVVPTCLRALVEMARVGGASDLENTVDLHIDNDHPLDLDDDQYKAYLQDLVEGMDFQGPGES
| Sequence | fitted relative affinity [z-score] |
| --- | --- |
| TTAGGACTACTTATCCTTTAGTGCTAG | 0.373 |
| GACGGACTGGGGTAGCGGGACGTGCTA | -0.921 |
| AACAATATATATATTATATAGTGCTAG | 0.271 |
| TTAGGTCTCCTTTTCCCTTAGTGCTAG | 4.92 |
| ATTATGTTTGCTTTGTTCTGGTGCTAG | 0.499 |
| TTAGCTCTCGGTCTCGGTTAGTGCTAG | 0.221 |
| GACGATCTCAGTTTTGAGACGTGCTAG | 1.13 |
| GACGATTTCGGGTTTCGAGGCGTGCTA | 2.57 |
| TTAGGTTTGGGGACTGGGTTAGTGCTA | -0.886 |
| TCAATTCCTGATCTCTGACTGTGCTAG | 1.17 |
| TTAGGTTTCCGTCTCCTTTAGTGCTAG | 6.95 |
| GACGGTTCCGATTTCGGGACGTGCTAG | 4.29 |
| TTAGGTATCCTACTTCTTTAGTGCTAG | 4.03 |
| TTAGACCTCAGACTGGATTAGTGCTAG | -0.453 |
| TTAGGTCTCCTTCTCATTTAGTGCTAG | 4.19 |
| GACGGTTTCTGTCTCGGGACGTGCTAG | 5.14 |
| TACGGTATCGGGTTTCGGGACGTGCTA | 2.92 |
| GACGGTCTCGTTCTCCTGACGTGCTAG | 1.82 |
| CCCAATTGTCTTTTCACTTTGTGCTAG | 1.78 |

Study 5
Target: CCNB2, cyclin fold, Cln2 fusion (human)
Technique: yeast growth competition, sequencing
Sample: yeast
Setting: weak parent motif
Baseline: not given
Reading: higher = stronger binding
Starting sequence: RBL2 docking peptide (human); STTRRRLFVENDS
| Variant | normalised enrichment score |
| --- | --- |
| SKTRRRLFVENDS [T2K] | 1.3 |
| STTRRRLFVENDY [S13Y] | 0.598 |
| STTRRRTFVENDS [L7T] | 0.207 |
| STTRRRLFVENQS [D12Q] | 0.221 |
| STCRRRLFVENDS [T3C] | 0.621 |
| STRRRRLFVENDS [T3R] | 1.02 |
| STTRRRLFCENDS [V9C] | 0.625 |
| VTTRRRLFVENDS [S1V] | 0.245 |
| STTRRRLFVEYDS [N11Y] | 0.495 |
| STTRRRLFVEGDS [N11G] | 0.804 |
| STTRRRMFVENDS [L7M] | -0.00755 |
| STTRRRLFVINDS [E10I] | 0.0266 |
| TTTRRRLFVENDS [S1T] | 0.25 |
| STTRRRHFVENDS [L7H] | 0.308 |
| KTTRRRLFVENDS [S1K] | 0.0983 |
| STTRRRLFVWNDS [E10W] | 0.0412 |
| STTRRRLEVENDS [F8E] | -0.0127 |
| STTRRRAFVENDS [L7A] | 0.716 |
| STTRRRIFVENDS [L7I] | 0.425 |
| STTRRRLFVENTS [D12T] | 0.395 |

For quick reference, copied from above (study 2):
| Variant | binding fitness [natural log] |
| --- | --- |
| V35Q | -1.55 |
| L45M | -1.36 |
| L45C | -1.37 |
| K34S | -1.52 |
| K34R | -1.29 |
| T37V | -1.48 |
| S47P | -1.55 |
| K34D | -1.49 |
| L38T | -1.53 |
| A46K | -1.5 |
